Assay results pooled from the literature.
Numbered parts are unrelated; each lists some results of a single study. Changes are numbered by the printed parent chain.

Set 1 — technique: protein-binding microarray; molecule type: double-stranded DNA, one strand shown; medium: in vitro; tested at: 2540 nM top; setting: 60-bp whole probe; added: salmon DNA 0.4 mg/ml; relative to: random background probes; direction: higher = stronger binding; quantity: fitted relative affinity; shared flanks, not repeated: GCCTAGCAC … GTCTTGATTCGCTTGACGCTGCTG
Target: Interferon regulatory factor 3, full length, phosphomimetic (IRF3, Homo sapiens, UniProt Q14653, residues 1-427, S386D/S396D/S398D/S402D/T404D/S405D)
UniProt Q14653, sequence (whole entry, unmodified, looked up): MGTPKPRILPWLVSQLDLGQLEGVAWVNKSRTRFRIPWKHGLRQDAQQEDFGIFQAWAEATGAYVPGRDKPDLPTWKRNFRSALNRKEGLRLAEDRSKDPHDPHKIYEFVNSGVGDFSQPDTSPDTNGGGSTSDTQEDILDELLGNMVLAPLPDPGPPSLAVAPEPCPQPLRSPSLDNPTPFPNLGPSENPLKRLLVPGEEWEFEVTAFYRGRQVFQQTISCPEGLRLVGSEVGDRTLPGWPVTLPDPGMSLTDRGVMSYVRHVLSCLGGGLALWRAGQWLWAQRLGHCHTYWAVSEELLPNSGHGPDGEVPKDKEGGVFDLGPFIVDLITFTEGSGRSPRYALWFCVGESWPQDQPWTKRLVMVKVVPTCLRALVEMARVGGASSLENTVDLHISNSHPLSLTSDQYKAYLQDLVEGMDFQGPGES
GTCGGACTGGGACTGGGGACGTGCTAG: -0.355 z-score
GACGATATCGGGTCTGGAGACGTGCTA: 0.211 z-score
TCACTCATGGCTTTGTAGATGTGCTAG: -0.499 z-score
GACGAACTGAGTATCGAGGCGTGCTAG: -0.0403 z-score
GACGGCCTGCTACTGCTGACGTGCTAG: -0.873 z-score
ATGCTTTACTCACTCGGAAAGTGCTAG: 0.0858 z-score
TTAGCTTTCAGTATCGATTAGTGCTAG: 2.75 z-score
TAAGGACTGGACACTGGGTTAGTGCTA: -0.84 z-score
TTTTTTTTTTTTTTTTGTATGTGCTAG: 1.53 z-score
TTAGATCTGGGGACTGGATTAGTGCTA: -0.692 z-score
GACGATTGCAGTCTCGAGACGTGCTAG: 0.501 z-score
GTCCTTTTCTTTACTGATGGGTGCTAG: 3.79 z-score
GGTTGTTTCTAATATTCTGCTGTGCTA: 1.32 z-score

Set 2 — target: CCNB3, cyclin fold, Cln2 fusion (human); technique: yeast growth competition, sequencing; medium: yeast; setting: weak parent motif; relative to: not given; direction: higher = stronger binding; quantity: normalised enrichment score
Starting sequence: MASTL docking peptide (human); PMIAKNLMCELDE; partner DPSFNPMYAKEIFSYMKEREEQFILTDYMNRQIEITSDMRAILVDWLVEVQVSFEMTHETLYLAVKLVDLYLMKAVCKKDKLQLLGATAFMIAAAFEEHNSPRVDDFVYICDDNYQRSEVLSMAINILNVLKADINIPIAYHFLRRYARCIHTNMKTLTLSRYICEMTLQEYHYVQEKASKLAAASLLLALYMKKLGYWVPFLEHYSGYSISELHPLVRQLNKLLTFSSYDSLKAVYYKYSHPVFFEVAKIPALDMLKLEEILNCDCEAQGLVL
M2I: -0.112
E10T: -0.212
M2E: 0.0226
L11Y: -0.238
D12C: 0.26
E10K: 0.14
E10A: 0.21
N6C: 0.0405
L11H: 0.0418
K5A: -0.0396
E10R: 0.193
L7Q: -0.168
L11A: 0.0299
N6W: 0.522
L7S: -0.0703
L11M: -0.481
E10W: 0.233
N6Y: 0.0214
K5C: 0.326
D12I: -0.416
I3G: 0.186
C9H: -0.166
M2P: -0.31
A4S: -0.208
L11V: 0.0642

Set 3 — technique: RNA Bind-n-Seq; molecule type: RNA; medium: in vitro; tested at: 100 nM; relative to: input RNA pool; direction: higher = stronger binding; quantity: bound/input enrichment
Target: RING finger protein unkempt homolog, zinc fingers 1-6, SBP tag (UNK, Homo sapiens, UniProt Q9C0B0, residues 30-357)
UniProt Q9C0B0, sequence (30-357, looked up): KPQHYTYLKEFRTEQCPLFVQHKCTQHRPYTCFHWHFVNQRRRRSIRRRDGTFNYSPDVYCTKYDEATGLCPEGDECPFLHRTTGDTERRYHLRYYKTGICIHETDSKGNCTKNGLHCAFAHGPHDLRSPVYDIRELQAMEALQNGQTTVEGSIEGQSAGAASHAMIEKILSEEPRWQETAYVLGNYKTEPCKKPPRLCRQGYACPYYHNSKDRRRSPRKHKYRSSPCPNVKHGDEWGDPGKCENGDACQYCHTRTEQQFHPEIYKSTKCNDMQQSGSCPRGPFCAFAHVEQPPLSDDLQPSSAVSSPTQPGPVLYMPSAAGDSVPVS
Setting: RNA with constant flanks, vertebrate orthologous sites, ends assumed
Shared flanks, not repeated: GGGAGUUCUACAGUCCGACGAUC … CAACAGAGGAUUGAGCAUCA
ACGCCCUUAUGUGCUGUUCCCGCCAGGGGCAAGGGCCAGAUGUCUCGCCGAGGACCUGCGUUUAAAACAUUUUUUAAAUCGUUGUACAGGAAGAGAUGUAAACAGCAUCUCAAAGUCCAG: 0.157 ratio
CGUGUUCUUAUUUAUUGAGGAGAGUUUUGUGCUGAGAACUGUAUUGCAUUAAUUUAAAAAUCAGUAGAUUCAUUUCCAUUUAUUGUGUUGCUUUCAUUAUUGAAAAUAAAUAUAACUUUG: 0.564 ratio
UUCAGGCACAACUGACUGGUUCACAGCACUCCUUACAUAGUUAUCUAUCAAAUUCAAGUGUAGUUAAUUUUCAGGAAACAACCAGGCAGUCAUCUUUAUCCUGUAGCCCAAUUGGAGAUU: 1.51 ratio
AUUUAGACCAUGGAGUCUAACCAGGGGGCUAGAAAAAGUAAAGCUGACUUUGUAAAAUUAUAGCCAUAUGCAGCUGCAUAACAGGACUAUCACUAGCAGCUGUGUUAAAGUAUUUAUAAA: 1.2 ratio
CAUGUCCUUGUUACUGUGAUAUUUAAAAUAGCCACAGUAUUCACCUUUUCCAAAUGAUUCUAGUAAUAUCUUUCUCUUAUCUGUUAUUUAUCAAUUUUUCCCAGUAUUUUUAUAUGGAAA: 1.76 ratio
AGCCUCCCUUCUGCCCCAAAAAUAGAACUUUUUAAAAUUGUGUUGCCACUUCUAAAAAUUUAGCAAUAUUCAAAUAAAACACUAAUGAAGUAAGAAAUUUUGCUCGAUGUGUUGCAAACC: 2.38 ratio
GGGACGCUUUGAUGUAAAAAUUGAAGUUAAGAGCUGAUCACAAGCACAAAUCUUUCCCACUAGCCAUUGAAAACGUUUAAAGAUACAAAAACAAAAAAACCUACUAGUCUUGAACAAACU: 1.16 ratio
AUUAGGUCAUGACCCUUACAGGUUAGGUCAUGAUGCUUACAGGUUAGGACAGGACCCUUAUAGAUUAGGCCAUGAUCCCUACAGACUAACUCCUGAUCCCUAUAGGAUGUCACCUCGACC: 0.788 ratio
CUGUUGUGGAAAAUAGUCUACCCAGAGAAGUAUCACCCUAUAAAUAUUAAUCAAAUAAUUUACCUAGCAUCUUCUUAGGAAUCGAAUUACAUGUCAAGCAUUUAAAGUGAGUUUGAGAUG: 1 ratio
GGUUGAUGUUCUGAAGAACCACUUGGUAAAAGAAGGUCGAGUAGAUGAAGAAAUUGCGCUUAGAAUUAUCAAUGAGGGUGCUGCCAUCCUUCGGAGAGAGAAAACCAUGAUAGAAGUAGA: 0.585 ratio
AAGGAGAAGAGCUCACAAACUCAAAGGAAAACUAGUCAAGAGUUUCUAAUAGUUAAAAGCUAGGAAAGAUUAGGACAACUUUACAAAUGAGCAAUUAAAAAGAAAAAGGAUAUGGAAACU: 0.481 ratio

Set 4 — technique: RNAcompete; molecule type: RNA; medium: in vitro; tested at: 20 nM; setting: 7-mer, probes averaged, single round; relative to: mean of 7-mers; direction: higher = stronger binding; quantity: 7-mer Z-score
Target: PABPC1L2, full length, GST fusion (mouse, UniProt A0ABA7IW68)
Residues (chain): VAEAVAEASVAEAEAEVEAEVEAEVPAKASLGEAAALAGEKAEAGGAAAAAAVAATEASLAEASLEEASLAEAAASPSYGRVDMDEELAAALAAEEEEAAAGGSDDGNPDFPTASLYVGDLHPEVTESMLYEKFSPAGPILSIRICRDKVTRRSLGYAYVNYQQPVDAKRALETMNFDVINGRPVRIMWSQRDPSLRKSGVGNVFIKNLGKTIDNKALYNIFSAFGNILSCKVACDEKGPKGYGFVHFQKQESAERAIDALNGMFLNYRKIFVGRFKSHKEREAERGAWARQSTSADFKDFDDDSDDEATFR
CCAAAAU: 1.09
AUCGCGG: -0.0047
UAUAAUG: -0.0971
CAAUCCU: -0.249
UGUGGAU: 0.158
ACGACGG: 0.0768
UUGUCUG: -0.364
CCGCAUC: -0.135
GACCCGU: -0.306
AGCGUAA: 0.0116
UCAAAGU: -0.0246
CCGGUCC: -0.369
UGUCACU: -0.282
AUAUUAC: -0.0736
ACGGACA: 0.303
GCAACCA: 0.0406
GGUUCCC: -0.26
UAGCCAU: -0.166
AAGACAG: 0.378
GUGACUU: -0.277

Set 5 — technique: DHFR PCA, deep sequencing; medium: yeast; added: (+)-ABA 710 µM; relative to: wild-type fitted maximum; direction: higher = stronger binding; quantity: relative binding score
Target: ABI1, truncated, D143A, DHFR fusion (Arabidopsis thaliana)
Setting: methotrexate growth selection, single substitutions
Starting sequence: PYL1, truncated, DHFR fusion (Arabidopsis thaliana); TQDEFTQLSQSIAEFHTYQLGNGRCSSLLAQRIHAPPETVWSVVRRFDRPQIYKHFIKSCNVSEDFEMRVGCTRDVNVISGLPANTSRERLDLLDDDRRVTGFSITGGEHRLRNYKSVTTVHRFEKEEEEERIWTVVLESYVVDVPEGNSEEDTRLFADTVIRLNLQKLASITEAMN; partner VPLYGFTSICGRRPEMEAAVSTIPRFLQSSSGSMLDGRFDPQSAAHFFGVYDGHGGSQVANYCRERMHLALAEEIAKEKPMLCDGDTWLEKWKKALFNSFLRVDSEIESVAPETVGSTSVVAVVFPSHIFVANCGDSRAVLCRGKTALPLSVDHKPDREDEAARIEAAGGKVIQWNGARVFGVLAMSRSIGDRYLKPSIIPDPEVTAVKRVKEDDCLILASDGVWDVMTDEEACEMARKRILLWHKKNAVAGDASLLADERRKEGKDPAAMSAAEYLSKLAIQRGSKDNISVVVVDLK
V70Q: 86.3%
M176A: 102%
I33K: -28.6%
S80E: 66.5%
E147G: 98%
T160E: 60.6%
L82V: 97.2%
T6S: 109%
V142M: 101%
V161Q: 36.1%
K126D: 109%
L91P: 1.15%
I52W: 102%
T106Q: 106%
A158W: -2.35%
P83E: 85.6%
M176I: 93.4%

Excerpt of the above (set 2):
E10T: -0.212
D12I: -0.416
N6Y: 0.0214
E10A: 0.21
L11A: 0.0299
A4S: -0.208
